Experimental data collected from several papers.
Compare with care: the assays were run in different laboratories. Values joined by “and” are separate records of one study, mostly repeats; a detail may differ.

For `Cn1cc(-c2ccc(-c3cncc(Cl)c3N3CCC4(CCNC4=O)CC3)cc2)cn1`, “log2 fold change” read -1.75 (COLO 205; gene expression, microarray, measured: CTSV mRNA; concentration not given, 6 h; reference: untreated cells).
`N#Cc1ccc2c(c1)[C@H]1CCCN(C(=O)c3ccc4[nH]cnc4c3)[C@H]1C2` gave a plasma level of 7.93 nmol/L (measured: androstenedione; human male, Phase II trial; oral, 20 mg once daily, last treatment, HPA axis, mean).
For `Oc1ccccc1-c1n[nH]cc1-c1ccnc2ccccc12`, “log2 fold change” read 0.1 (CKA1 (Candida albicans); kinase binding, MIB/MS competition; Candida albicans lysate; 1 µM; reference: DMSO).
`NC(=O)c1cnc2[nH]ccc2c1N[C@@H]1[C@@H]2CC3C[C@H]1C[C@@](O)(C3)C2` — result for “change from baseline”: -1.4% (flow cytometry, measured: CD4+ central memory T cells; Japanese healthy subjects, peripheral blood; oral, 100 mg twice daily, day 4).
Under “log2 fold change”, `N#Cc1ccc2c(-c3ccncc3)c(-c3ccc(F)cc3)nn2c1` is recorded as 0.453 (kinase binding, competitor, MIB/MS competition, measured: HSL1; Candida albicans cell lysate; 100 nM; reference: DMSO).
`O=C(O)CNC(=O)Cc1ccccc1` gave a sarcomere length of 1.72 µm (ventricular cardiomyocytes, C57BL/6 mouse; dose not given, 0.376 s).
For `CC(C)n1ncc2c(C(=O)NCC3(C)CNC3)cc(C3CC3)nc21`, the virus titre was 10800 PFU/mL and 8000 PFU/mL (Enterovirus D68; time-of-addition; RD, US/MO/14-18947; 3 µM, 7 to 7 h post infection).
`CCn1c(=O)c(-c2cc[nH]n2)cc2c(C)nc(N)nc21` — result for “necrotic/apoptotic bodies score”: 0 (enterovirus A71; suckling mouse, EV71-infected, spleen; 0.25 mg/kg; direction not given).
